Experimental data gathered from unrelated publications.
Each line is one published result; not all experiments were run side by side. ± gives the spread as reported.

| SMILES | assay | system | setting | Cmax |
| --- | --- | --- | --- | --- |
| CCCCCCCC(=O)OC[C@H](NC(=O)[C@H](CO)NC(=O)CN)C(=O)N[C@@H](Cc1ccccc1)C(=O)N[C@@H](CC(C)C)C(=O)N[C@@H](CO)C(=O)N1CCC[C@H]1C(=O)N[C@@H](CCC(=O)O)C(=O)N[C@@H](Cc1cnc[nH]1)C(=O)N[C@@H](CCC(N)=O)C(=O)N[C@@H](CCCNC(=N)N)C(=O)N[C@H](C(=O)N[C@@H](CCC(N)=O)C(=O)N[C@@H](CCC(N)=O)C(=O)N[C@@H](CCCNC(=N)N)C(=O)N[C@@H](CCCCN)C(=O)N[C@@H](CCC(=O)O)C(=O)N[C@@H](CO)C(=O)N[C@@H](CCCCN)C(=O)N[C@@H](CCCCN)C(=O)N1CCC[C@H]1C(=O)N1CCC[C@H]1C(=O)N[C@@H](C)C(=O)N[C@@H](CCCCN)C(=O)N[C@@H](CC(C)C)C(=O)N[C@@H](CCC(N)=O)C(=O)N1CCC[C@H]1C(=O)N[C@@H](CCCNC(=N)N)C(=O)O)C(C)C | two-site ELISA | human, plasma | intravenous infusion, 5 µg/kg/h, 65 min infusion | 19.6 ± 2.3 ng/mL |
| [2H]C([2H])([2H])C([2H])([2H])C([2H])([2H])OC(C(=O)OC1CCNCC1)(c1ccccc1)c1ccccc1 | – | healthy Japanese male subjects, plasma | oral, 18 mg once daily, day 16, fed, mean | 180 ng/mL |
| CC[C@H](C)C(=O)N1CCC(NC(=O)Nc2ccc(OC(F)(F)F)c(F)c2)CC1 | – | human | oral, 8 mg, fasted, geometric LS mean | 35.3 ng/mL |
| CC(=CCC(O)C(C)=Cc1csc(C)n1)CC=CC(C)C(O)C(C)C(=O)C(C)(C)C(O)CC(=O)O (stereo not drawn) | – | human, plasma | intravenous infusion, 15.0 mg/m2 KOS-1584, 3 h infusion, cycle 1 | 8.05 ± 2.08 ng/mL |
| C[C@]12CC[C@H](OC(=O)NC3CCNCC3)C[C@H]1CC[C@@H]1[C@@H]2CC[C@]2(C)[C@@H](c3ccc(=O)oc3)CC[C@]12O | – | male Sprague-Dawley rat, plasma | intravenous, 5 mg/kg, single dose | 5220 ng/mL |
| CCCCCCCC(=O)OC[C@H](NC(=O)[C@H](CO)NC(=O)CN)C(=O)N[C@@H](Cc1ccccc1)C(=O)N[C@@H](CC(C)C)C(=O)N[C@@H](CO)C(=O)N1CCC[C@H]1C(=O)N[C@@H](CCC(=O)O)C(=O)N[C@@H](Cc1cnc[nH]1)C(=O)N[C@@H](CCC(N)=O)C(=O)N[C@@H](CCCNC(=N)N)C(=O)N[C@H](C(=O)N[C@@H](CCC(N)=O)C(=O)N[C@@H](CCC(N)=O)C(=O)N[C@@H](CCCNC(=N)N)C(=O)N[C@@H](CCCCN)C(=O)N[C@@H](CCC(=O)O)C(=O)N[C@@H](CO)C(=O)N[C@@H](CCCCN)C(=O)N[C@@H](CCCCN)C(=O)N1CCC[C@H]1C(=O)N1CCC[C@H]1C(=O)N[C@@H](C)C(=O)N[C@@H](CCCCN)C(=O)N[C@@H](CC(C)C)C(=O)N[C@@H](CCC(N)=O)C(=O)N1CCC[C@H]1C(=O)N[C@@H](CCCNC(=N)N)C(=O)O)C(C)C | – | mouse, plasma | intraperitoneal, 7.2 mg/kg | 171 ng/mL |
| C/C=C/C=C/C/C=C/CCCCCCCc1cccc(O)c1O | – | male Wistar rat, plasma | intravenous, 20 mg/kg | 8080 ng/mL |
| CC(C)C[C@@H](NC(=O)[C@@H](Cc1ccccc1)NC(=O)[C@H](N)Cc1ccccc1)C(=O)N[C@H](CCCCN)C(=O)N1CCC(N)(C(=O)O)CC1 | – | human, plasma | intravenous, 15 µg/kg | 169 ng/mL |
| CCCCCCCC(=O)NC[C@H](NC(=O)[C@H](CO)NC(=O)CN)C(=O)N[C@@H](Cc1ccccc1)C(=O)N[C@@H](CC(C)C)C(=O)N[C@@H](CO)C(=O)N1CCC[C@H]1C(=O)N[C@@H](CCC(=O)O)C(=O)N[C@@H](Cc1c[nH]cn1)C(=O)N[C@@H](CCC(N)=O)C(=O)N[C@@H](CCCNC(=N)N)C(=O)N[C@H](C(=O)N[C@@H](CCC(N)=O)C(=O)N[C@H](C(=O)N[C@@H](CCCNC(=N)N)C(=O)N1CCC[C@H]1C(=O)N1CCC[C@H]1C(=O)N[C@@H](Cc1c[nH]cn1)C(=O)N[C@@H](CCCCN)C(=O)N[C@@H](C)C(=O)N1CCC[C@H]1C(=O)N[C@@H](Cc1c[nH]cn1)C(=O)N[C@H](C(=O)N[C@H](C(=O)O)C(C)C)C(C)C)C(C)C)C(C)C | – | mouse, plasma | subcutaneous, 7.2 mg/kg | 828 ng/mL |
| O=c1cc(-c2ccccc2)oc2c(Br)c(O)c(O)c(O)c12 | – | C57BL/6 mouse, plasma | intravenous, 10 mg/kg, single dose | 3440 ng/mL |
| CC(C)[C@H]1NC(=O)C[C@H]2/C=C/CCSSC[C@@H](NC1=O)C(=O)N[C@H](Cc1cccc3ccccc13)C(=O)NCC(=O)O2 | – | nude mouse, blood | intraperitoneal, 4 mg/kg | 36.6 ng/mL |
| CC(C)(CCCC/C=C/CCCCCC(C)(C)C(=O)O)C(=O)O | – | blood | oral, concentration not given, multiple doses | > 100000 ng/mL |
| C[C@@H]1CC[C@H]2[C@@H](C)CO[C@@H]3O[C@@]4(C)CC[C@@H]1[C@]32OO4 | – | male Sprague-Dawley rat, plasma | oral, 100 mg/kg | 913 ng/mL |
| CCc1c2c(nc3ccc(OC4OC(C(=O)O)C(O)C(O)C4O)cc13)-c1cc3c(c(=O)n1C2)COC(=O)C3(O)CC (stereo not drawn) | – | human patients, plasma | intravenous, 177 mg/m^2 of parent drug | 131 ng/mL |
| Cc1cc(Nc2nc(C[C@@]3(C(=O)O)CCN(Cc4cccc(Cl)c4F)[C@H](C)C3)cc(C)c2F)n[nH]1 | – | BALB/c nude mice, female, NCI-H446 xenograft, plasma | oral, 10 mg/kg single | 14700 ng/mL |
| COc1ccc(F)cc1S(=O)(=O)Nc1cnc2c(c1)C(=O)NCCO2 | – | male C57BL/6 mouse, plasma | oral, 3 mg/kg, single dose | 590 ng/mL |
| CCCCCCCCCCCCCC(=O)N[C@@H](Cc1ccccc1)C(=O)N[C@@H](CCC(=O)O)C(=O)N[C@@H](CCC(=O)O)C(=O)N[C@@H](CCC(=O)O)C(=O)N[C@@H](CCCNC(=N)N)C(=O)N[C@@H](CC(C)C)C(=O)O | – | plasma | intravenous, 5 mg/kg, HLPN formulation | 59600 ng/mL |
| CCC[C@@H]1O[C@@H]2C[C@H]3[C@@H]4C[C@H](F)C5=CC(=O)CC[C@]5(C)[C@@]4(F)[C@@H](O)C[C@]3(C)[C@]2(C(=O)CO)O1 | item: parent steroid | CD1 mice, plasma | intravenous, 0.15 mg/kg, together with: budesonide 0.2 mg/kg | 267 nM |
